Published values from different studies.
Numbers after ± are the reported error.

Structure (SMILES)	tested on	test	test system	setting	quantity	value
CC(C)C12OC1C1OC13C1(C)CCC4=C(COC4=O)C1CC1OC13C2OC(=O)CCC(=O)OC1OC(CO)C(O)C(O)C1O (centres unmarked)	HEK-293T	cell growth or viability, thymidine uptake	–	24 h	IC50	0.279 µM
Cc1ccccc1/C=C/C(=O)N[C@H]1COC(=O)[C@H](CC(=O)O)NC(=O)[C@H]([C@@H](O)C(=O)c2ccccc2N)NC(=O)[C@@H](Cc2ccccc2)NC(=O)[C@@H](NC(=O)[C@@H](Cc2ccccc2)NC(=O)CN)[C@@H](C)OC1=O	SNU-638	–	–	–	IC50	10.3 µM
O[C@]12C=C(c3nccc4c3[nH]c3ccccc34)[C@@H]3CCN(CCCC/C=C\CC1)C[C@@]31C[C@@H]3/C=C\CCCCN3[C@H]12	KB	cell growth or viability, neutral red	–	48 h	IC50	1 µg/mL
CC(=O)O[C@@H]1C[C@@H](C)O[C@H]2O[C@@H]3C[C@@H]4CC[C@@H]5[C@H](CC[C@]6(C)[C@@H](C7=CC(=O)OC7)CC[C@]56O)[C@@]4(C=O)C[C@H]3O[C@]21O	L6	cell growth or viability, resazurin	–	72 h	IC50	< 0.01 µM
CCOc1ccc(Br)cc1/C=N/NC(=O)CCl	HT-29	cell growth or viability	–	–	IC50	2.1 µM
Cc1cc(Oc2nc(N3CC[C@@H](c4ccncc4)C3)ncc2F)[nH]n1	BXPC-3	cell proliferation	pancreas cancer	–	IC50	58.9 µM
Cc1cc(Nc2nc(C[C@@]3(C(=O)O)CCN(Cc4cccc(Cl)c4F)[C@H](C)C3)cc(C)c2F)[nH]n1	IMR-32	cell growth or viability, ATP luminescence	–	5 days	IC50	0.0113 µM
CC[C@H](C)[C@@H]([C@@H](CC(=O)N1CCC[C@H]1[C@H](OC)[C@@H](C)C(=O)N[C@H](C)[C@@H](O)c1ccccc1)OC)N(C)C(=O)[C@@H](NC(=O)[C@H](C(C)C)N(C)C(=O)OCc1ccc(NC(=O)[C@H](CCCNC(N)=O)NC(=O)[C@@H](NC(=O)CCCc2cn(CC(=O)N[C@@H](CCCCNC(=O)CC[C@H](NC(=O)c3ccc(NCc4cnc5nc(N)[nH]c(=O)c5n4)cc3)C(=O)O)C(=O)NCCCC[C@H]3NC(=O)[C@H](CCCCN)NC(=O)[C@H](CCCNC(N)=O)NC(=O)[C@H](Cc4ccc(O)cc4)NC(=O)[C@@H](NC(=O)[C@H](Cc4ccc5ccccc5c4)NC(=O)[C@H](CCCNC(=N)N)NC(=O)[C@@H](N)CCCNC(=N)N)CSSC[C@@H](C(=O)N[C@@H](CCCNC(=N)N)C(N)=O)NC(=O)[C@H](CCCNC(N)=O)NC(=O)[C@H](CCCNC(=N)N)NC(=O)[C@H](Cc4ccc(O)cc4)NC(=O)[C@@H]4CCCN4C3=O)nn2)C(C)C)cc1)C(C)C	L02	cell growth or viability, CCK-8	–	–	IC50	4.45 µM
CSc1ccc2c(c1)c(CCN)c(C)n2Cc1ccc(Cl)cc1	BV-2	cell count, high-content imaging	–	geometric mean	IC50	3.55 µM
CCOc1ccccc1-n1c(CN2CCNCC2)nc2ccccc2c1=O	Panc 02.03	cell growth or viability	–	72 h	IC50	0.0555 µM
Cc1sc2c(c1C)C(c1ccc(-c3cccc(NC(=O)c4cnn5cccnc45)c3)cc1)=N[C@@H](CC(N)=O)c1nnc(C)n1-2	NB-4	cell growth or viability, ATP luminescence	–	72 h	IC50	0.008 µM
CC(C)C12OC1C1OC13C1(C)CCC4=C(COC4=O)C1CC1OC13C2OC(=O)CCCOC1OC(CO)C(O)C(O)C1O (centres unmarked)	SK-MEL-1	cell growth or viability, XTT	–	47 h	IC50	3.44 µM
O=C1NC2(CC2)COc2ncc(F)cc2[C@H]2COCCN2c2ccn3ncc1c3n2	–	–	Sprague-Dawley rats, female, blood	oral, 20 mg/kg/day, end of treatment, 4-week subacute toxicity	basophil percentage	0.06 ± 0.05%
Cc1ccc2c(Br)cc(Br)c([O-])c2n1.Cc1ccc2c(Br)cc(Br)c([O-])c2n1.[Co+2].c1cnc2c(c1)c1nccnc1c1cccnc12	BEL-7404	cell growth or viability, MTT	–	48 h	IC50	4.09 µM
CN(C)C(=O)[C@@H](NC(=O)c1cc(-c2ccnn2C)ccc1-c1ccc(C(F)(F)F)cc1)c1cccc(C(F)(F)F)c1	NKL effector, Ba/F3-ULBP2 target	NKG2D-mediated cell killing, inhibitor	–	–	IC50	> 20 µM
CC1CCC2C(C)C(OC(=O)CCC(=O)N3CCN(CC(=O)Nc4ccc([N+](=O)[O-])c(C(F)(F)F)c4)CC3)OC3OC4(C)CCC1C32OO4 (centres unmarked)	IOSE-144	cell growth or viability, CCK-8	–	–	IC50	4.22 µM
CC(=O)[O][Pt]([NH2])([NH2])([Cl])([Cl])[O]C(=O)C(Cl)Cl	BCPAP	cell growth or viability, MTT	–	72 h	IC50	0.73 µM
CC1CCC2C(C)C(OC(=O)CCC(=O)OC3C(C)OC(n4cc(F)c(=O)[nH]c4=O)C3OC(=O)CCC(=O)OC3OC4OC5(C)CCC6C(C)CCC(C3C)C46OO5)OC3OC4(C)CCC1C32OO4 (centres unmarked)	IOSE-144	cell growth or viability, CCK-8	–	–	IC50	12.8 µM
Cc1sc2c(c1C)C(c1ccc(NC(=O)c3cc([N+](=O)[O-])ccc3F)cc1)=N[C@@H](CC(=O)OC(C)(C)C)c1nnc(C)n1-2	MOLT-4	cell growth or viability, ATP luminescence	–	72 h	IC50	7e-06 µM
Cc1ccccc1/C=C/C(=O)N[C@@H](CO)C(=O)N[C@H](C(=O)N[C@H](Cc1ccccc1)C(=O)N[C@@H]1C(=O)N2[C@@H](CC(=O)O)C(=O)Nc3ccccc3[C@@]2(O)[C@@H]1O)[C@@H](C)O	SK-HEP1	–	–	–	IC50	> 20 µM
CSc1ccc2c(c1)c(CCN)c(C)n2Cc1ccccc1Cl	HMC3	cell growth or viability, imaging	–	–	IC50	4.02 µM
C[C@H]1[C@H](OC(=O)CCC(=O)OCCC2CCN(CC(=O)Nc3ccc([N+](=O)[O-])c(C(F)(F)F)c3)CC2)O[C@@H]2O[C@@]3(C)CC[C@H]4[C@H](C)CC[C@@H]1[C@@]24OO3	IOSE-144	cell growth or viability, CCK-8	–	–	IC50	> 50 µM
[CH3][Ti+2][O]C(=O)c1ccc([S][Au][PH](c2ccccc2)(c2ccccc2)[c-]2cccc2)cc1.[Fe+2].c1cc[cH-]c1.c1cc[cH-]c1.c1cc[cH-]c1	HEK-293T	cell growth or viability, XTT	–	24 h	IC50	5.11 µM

Some of these lines once more:
Structure (SMILES)	tested on	test	test system	setting	quantity	value
Cc1ccccc1/C=C/C(=O)N[C@@H](CO)C(=O)N[C@H](C(=O)N[C@H](Cc1ccccc1)C(=O)N[C@@H]1C(=O)N2[C@@H](CC(=O)O)C(=O)Nc3ccccc3[C@@]2(O)[C@@H]1O)[C@@H](C)O	SK-HEP1	–	–	–	IC50	> 20 µM
